Published values collected from several papers.
Compare with care: the assays were run in different laboratories.

| Structure (SMILES) | test | system | conditions | how to read | quantity | result |
| --- | --- | --- | --- | --- | --- | --- |
| CC[C@H](C)CCCCC(=O)N[C@@H](CCN)C(=O)N[C@H](C(=O)N[C@@H](CCN)C(=O)N[C@H]1CCNC(=O)[C@H]([C@@H](C)O)NC(=O)[C@H](CCN)NC(=O)[C@H](CCN)NC(=O)[C@H](CC(C)C)NC(=O)[C@@H](Cc2ccccc2)NC(=O)[C@H](CCN)NC1=O)[C@@H](C)O | measured: dry mouth | normal renal function | intravenous, 0.75 mg/kg |  | adverse event incidence | 37.5% |
| O=P(O)(O)O[C@@H]1[C@H](O)[C@H](O)[C@@H](OP(=O)(O)O)[C@H](OP(=O)(O)O)[C@H]1O | binding, equilibrium dialysis LC-MS |  | 5 µM, thermostabilized A2AR-BRIL construct | relative to: no-protein control, direction not given | z-scored log2 fold change | -1.06 |
| CC(=O)O[C@H]1C(=O)[C@@]2(C)[C@H]([C@H](OC(=O)c3ccccc3)[C@]3(O)C[C@H](OC(=O)[C@H](O)[C@@H](NC(=O)c4ccccc4)c4ccccc4)C(C)=C1C3(C)C)[C@]1(OC(C)=O)CO[C@@H]1C[C@@H]2O | measured: Diarrhoea | patients with advanced solid tumours | intravenous, dose not given, all grades, possibly related to drug |  | adverse event incidence | 37% |
| Cc1c(C(=O)O)ccc2c3n(nc12)[C@@H]1[C@H](C3)N(CC2CC2)[C@@]2(C(=O)Nc3cc(Cl)ccc32)[C@H]1c1cccc(Cl)c1F | phase Ia trial, measured: Dysgeusia | cancer patients | oral, dose not given, all patients grade ≥3 |  | adverse event incidence | 0% |
| NCCONC(=O)[C@@H]1CC[C@@H]2CN1C(=O)N2OS(=O)(=O)O | measured: leading to temporary interruption | healthy Chinese men | intravenous, 1 g, treatment-related |  | adverse event incidence | 0% |
| CNC(=O)c1ccc(-c2cnc3ncc(Cc4ccc5ncccc5c4)n3n2)cc1F | phase 1 clinical trial, measured: upper abdominal pain | gastric cancer expansion cohort | oral, 600 mg twice daily, grade 3 or 4 |  | adverse event incidence | 0% |
| N[C@@H](Cc1c[nH]cn1)C(=O)O | binding, equilibrium dialysis LC-MS |  | 5 µM, thermostabilized A2AR-BRIL construct | relative to: no-protein control, direction not given | z-scored log2 fold change | 0.242 |
| O=C1CCc2ccc(OCCCCN3CCN(c4cccc(Cl)c4Cl)CC3)cc2N1 | measured: Sedation | genotyped patients, CYP2D6 intermediate metabolizers | dose not given, long-acting oral or depot |  | adverse event incidence | 5.7% |
| FC(F)(F)c1ccc(CNc2ccc(Cc3c[nH]c4ncc(Cl)cc34)cn2)cn1 | measured: Fatigue | patients with advanced solid tumours | oral, dose not given, all grades, possibly related to drug |  | adverse event incidence | 59% |
| CC(C)n1c(Nc2cccnc2)nc2cnc(Nc3ccc(N4CCN(C)CC4)cc3)nc21 | measured: Toothache | healthy male subjects | oral, 100 mg, together with: itraconazole |  | adverse event incidence | 0% |

A few entries again:
| Structure (SMILES) | test | system | conditions | how to read | quantity | result |
| --- | --- | --- | --- | --- | --- | --- |
| O=P(O)(O)O[C@@H]1[C@H](O)[C@H](O)[C@@H](OP(=O)(O)O)[C@H](OP(=O)(O)O)[C@H]1O | binding, equilibrium dialysis LC-MS |  | 5 µM, thermostabilized A2AR-BRIL construct | relative to: no-protein control, direction not given | z-scored log2 fold change | -1.06 |
